Measurements of several laboratories.
± marks the error that the study gave.

SMILES | assay | system | setting | how to read | quantity | value
Cc1ccc(NC(=O)c2ccc(CN3CCN(C)CC3)cc2)cc1Nc1nccc(-c2cncc(-c3oncc3C)c2)n1 | – | healthy volunteers, plasma | oral, 12.5 mg once daily, day 1, 7-day dosing, mean | – | Tmax | 6.67 h
CS(=O)(=O)n1cc2c(n1)CN([C@H]1CO[C@H](c3cc(F)ccc3F)[C@@H](N)C1)C2 | – | healthy Japanese men, plasma | oral, 50 mg once weekly, day 1 | – | Tmax | 1.58 h
COc1cc(OC)c(/C=C/S(=O)(=O)Cc2ccc(OC)c(NCC(=O)O)c2)c(OC)c1 | – | cancer patients, phase I, plasma | oral, 280 mg twice daily, day 21 cycle 1 | – | Tmax | 0.83 ± 0.58 h
CC[C@H](C)[C@H](NC(=O)[C@H](Cc1ccccc1)NC(=O)[C@H](CCC(=O)O)NC(=O)[C@H](CCCCNC(=O)COCCOCCNC(=O)COCCOCCNC(=O)CC[C@H](NC(=O)CCCCCCCCCCCCCCCCC(=O)O)C(=O)O)NC(=O)[C@H](C)NC(=O)[C@H](C)NC(=O)[C@H](CCC(N)=O)NC(=O)CNC(=O)[C@H](CCC(=O)O)NC(=O)[C@H](CC(C)C)NC(=O)[C@H](Cc1ccc(O)cc1)NC(=O)[C@H](CO)NC(=O)[C@H](CO)NC(=O)[C@@H](NC(=O)[C@H](CC(=O)O)NC(=O)[C@H](CO)NC(=O)[C@@H](NC(=O)[C@H](Cc1ccccc1)NC(=O)[C@@H](NC(=O)CNC(=O)[C@H](CCC(=O)O)NC(=O)C(C)(C)NC(=O)[C@@H](N)Cc1cnc[nH]1)[C@@H](C)O)[C@@H](C)O)C(C)C)C(=O)N[C@@H](C)C(=O)N[C@@H](Cc1c[nH]c2ccccc12)C(=O)N[C@@H](CC(C)C)C(=O)N[C@H](C(=O)N[C@@H](CCCNC(=N)N)C(=O)NCC(=O)N[C@@H](CCCNC(=N)N)C(=O)NCC(=O)O)C(C)C | – | Caucasian subjects | subcutaneous once weekly, 0.5 mg, median | – | tmax at steady state | 36 h
N[C@@H](CC(=O)N1CCc2c(nc(C(F)(F)F)nc2C(F)(F)F)C1)CN1CC(F)(F)CCC1=O | – | healthy Korean male volunteers, plasma | oral, 50 mg daily for 6 days, day 7, median, together with: glimepiride 4 mg | – | Tmax at steady state | 3 h
Cn1c(-c2ccc(C(N)=O)cc2F)nnc1C(C)(C)Oc1c(F)cc(Cl)cc1F | – | healthy young Japanese subjects, plasma | oral, 20 mg once daily, day 18, 14 days dosing | – | Tmax range | 0.5 to 4 h
C[C@@H](N)c1cc(Cl)ccc1Cn1c(=S)[nH]c(=O)c2[nH]ccc21 | – | healthy Japanese volunteers, plasma | oral, 10 mg once daily, day 1, median | – | tmax | 0.51 h
COc1ccc(Oc2cc(N(C)CCOc3ccc(CC4SC(=O)NC4=O)cc3)ncn2)cc1 (stereo not shown) | – | healthy male, plasma | oral, alone or with empagliflozin | – | Tmax at steady state | < 2.5 h
Cc1nc(-c2ccc(OCC(C)C)c(C#N)c2)sc1C(=O)O | – | pediatric patients, plasma | oral, 40 mg once daily, fed, PopPK post hoc, weight at least 40 kg | – | Tmax at steady state | 1.35 ± 0.51 h
C=C(C)[C@@H]1CC[C@]2(NCCN3CCS(=O)(=O)CC3)CC[C@]3(C)[C@H](CC[C@@H]4[C@@]5(C)CC=C(C6=CC[C@@](CF)(C(=O)O)CC6)C(C)(C)[C@@H]5CC[C@]43C)[C@@H]12 | – | HIV-1-positive treatment-naive adults, plasma | oral, 140 mg single dose, day 1, with food | – | tmax | 5.51 h
CC[C@H](C)[C@H](NC(=O)[C@H](Cc1ccccc1)NC(=O)[C@H](CCC(=O)O)NC(=O)[C@H](CCCCNC(=O)COCCOCCNC(=O)COCCOCCNC(=O)CC[C@H](NC(=O)CCCCCCCCCCCCCCCCC(=O)O)C(=O)O)NC(=O)[C@H](C)NC(=O)[C@H](C)NC(=O)[C@H](CCC(N)=O)NC(=O)CNC(=O)[C@H](CCC(=O)O)NC(=O)[C@H](CC(C)C)NC(=O)[C@H](Cc1ccc(O)cc1)NC(=O)[C@H](CO)NC(=O)[C@H](CO)NC(=O)[C@@H](NC(=O)[C@H](CC(=O)O)NC(=O)[C@H](CO)NC(=O)[C@@H](NC(=O)[C@H](Cc1ccccc1)NC(=O)[C@@H](NC(=O)CNC(=O)[C@H](CCC(=O)O)NC(=O)C(C)(C)NC(=O)[C@@H](N)Cc1cnc[nH]1)[C@@H](C)O)[C@@H](C)O)C(C)C)C(=O)N[C@@H](C)C(=O)N[C@@H](Cc1c[nH]c2ccccc12)C(=O)N[C@@H](CC(C)C)C(=O)N[C@H](C(=O)N[C@@H](CCCNC(=N)N)C(=O)NCC(=O)N[C@@H](CCCNC(=N)N)C(=O)NCC(=O)O)C(C)C | LC-MS/MS | healthy fasting men, plasma | oral, 10 mg, taken with 50 mL water | – | tmax | 1.5 h
Oc1ccc2c3c(cnc2c1)-c1ccc(C(F)(F)F)cc1O[C@@H]3c1ccc(OCCN2CC(CF)C2)cc1 | refers to: total radioactivity | healthy women, fasted, plasma | oral, 400 mg [14C]-labelled, single dose, median | – | tmax | 2 h
O=C(NC[C@H]1CN(c2ccc(N3CCOCC3=O)cc2)C(=O)O1)c1ccc(Cl)s1 | – | renal impairment patients | oral, 10 mg | baseline: normal renal function | Tmax decrease | ~1 h

Excerpt of the above:
SMILES | assay | system | setting | how to read | quantity | value
COc1cc(OC)c(/C=C/S(=O)(=O)Cc2ccc(OC)c(NCC(=O)O)c2)c(OC)c1 | – | cancer patients, phase I, plasma | oral, 280 mg twice daily, day 21 cycle 1 | – | Tmax | 0.83 ± 0.58 h
